Measurements collected from several papers.
Compare with care: the assays were run in different laboratories. Numbers after ± are the reported error.
Sequence of UniProt Q12809 (whole entry, looked up): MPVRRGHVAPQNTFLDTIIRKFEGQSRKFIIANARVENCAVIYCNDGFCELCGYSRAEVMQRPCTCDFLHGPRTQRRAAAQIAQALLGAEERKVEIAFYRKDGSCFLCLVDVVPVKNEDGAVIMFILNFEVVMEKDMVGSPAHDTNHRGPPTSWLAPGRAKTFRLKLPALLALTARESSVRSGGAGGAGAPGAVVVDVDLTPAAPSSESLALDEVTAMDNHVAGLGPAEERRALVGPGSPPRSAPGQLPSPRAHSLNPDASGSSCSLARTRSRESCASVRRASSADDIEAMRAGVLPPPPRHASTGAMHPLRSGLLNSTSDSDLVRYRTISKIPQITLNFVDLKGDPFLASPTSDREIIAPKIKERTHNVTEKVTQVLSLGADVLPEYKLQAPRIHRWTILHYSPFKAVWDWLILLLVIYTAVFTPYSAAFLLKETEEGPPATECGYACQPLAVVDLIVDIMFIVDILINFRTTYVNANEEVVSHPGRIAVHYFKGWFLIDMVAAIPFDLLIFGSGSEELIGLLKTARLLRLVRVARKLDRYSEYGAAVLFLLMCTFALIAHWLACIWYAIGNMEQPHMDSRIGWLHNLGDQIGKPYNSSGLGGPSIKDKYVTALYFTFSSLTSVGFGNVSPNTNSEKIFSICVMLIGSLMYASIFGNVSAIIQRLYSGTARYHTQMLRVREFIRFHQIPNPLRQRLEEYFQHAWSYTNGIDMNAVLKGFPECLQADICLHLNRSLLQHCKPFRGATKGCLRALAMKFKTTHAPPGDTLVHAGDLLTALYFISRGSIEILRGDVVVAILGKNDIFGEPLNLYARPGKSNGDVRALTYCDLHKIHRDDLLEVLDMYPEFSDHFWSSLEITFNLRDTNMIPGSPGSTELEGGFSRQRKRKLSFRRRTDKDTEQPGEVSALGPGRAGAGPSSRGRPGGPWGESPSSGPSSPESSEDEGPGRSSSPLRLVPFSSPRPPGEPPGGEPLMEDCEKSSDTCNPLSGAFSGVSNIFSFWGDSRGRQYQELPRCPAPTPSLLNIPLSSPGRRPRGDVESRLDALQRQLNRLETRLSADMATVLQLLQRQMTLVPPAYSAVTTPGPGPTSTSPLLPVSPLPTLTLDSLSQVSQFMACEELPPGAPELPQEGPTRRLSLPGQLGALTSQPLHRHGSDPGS

SMILES | tested on | assay | test system | conditions | how to read | measurement | value
O=C[C@H](C[C@@H]1CCNC1=O)NC(=O)[C@H](CC1CCCCC1)NC(=O)c1cc2ccccc2[nH]1 |  |  | dog, plasma | intravenous, 4 mg/kg |  | AUC | 7130 ng·h/mL
CC[C@H](C)[C@H](NC(=O)[C@H](CC(C)C)NC(=O)[C@H](Cc1c[nH]c2ccccc12)NC(=O)[C@H](CCC(N)=O)NC(=O)[C@@H](NC(=O)[C@H](Cc1ccccc1)NC(=O)[C@H](C)NC(=O)[C@H](CCCCNC(=O)COCCOCCNC(=O)COCCOCCNC(=O)CC[C@H](NC(=O)CCCCCCCCCCCCCCCCCCC(=O)O)C(=O)O)NC(=O)[C@H](CCC(N)=O)NC(=O)[C@H](C)NC(=O)[C@@H](NC(=O)[C@H](CCCCN)NC(=O)[C@H](CC(=O)O)NC(=O)[C@H](CC(C)C)NC(=O)C(C)(C)NC(=O)[C@@H](NC(=O)[C@H](CO)NC(=O)[C@H](Cc1ccc(O)cc1)NC(=O)[C@H](CC(=O)O)NC(=O)[C@H](CO)NC(=O)[C@@H](NC(=O)[C@H](Cc1ccccc1)NC(=O)[C@@H](NC(=O)CNC(=O)[C@H](CCC(=O)O)NC(=O)C(C)(C)NC(=O)[C@@H](N)Cc1ccc(O)cc1)[C@@H](C)O)[C@@H](C)O)[C@@H](C)CC)[C@@H](C)CC)C(C)C)C(=O)N[C@@H](C)C(=O)NCC(=O)NCC(=O)N1CCC[C@H]1C(=O)N[C@@H](CO)C(=O)N[C@@H](CO)C(=O)NCC(=O)N[C@@H](C)C(=O)N1CCC[C@H]1C(=O)N1CCC[C@H]1C(=O)N1CCC[C@H]1C(=O)N[C@@H](CO)C(N)=O |  |  | human | subcutaneous, 15.0 mg once weekly, week 23, multiple doses |  | CL/F | 0.7 mL/min
CC(C)(C)[C@H](NC(=O)C(F)(F)F)C(=O)N1C[C@H]2[C@@H]([C@H]1C(=O)N[C@H](C#N)C[C@@H]1CCNC1=O)C2(C)C |  |  | human, fasted | oral, 1500 mg single dose, 28 days, no ritonavir |  | participants with related adverse events | 0%
C[C@@H]1Cc2c(Cl)cc(C(=O)N[C@H](Cc3ccccc3)C(=O)O)c(O)c2C(=O)O1 |  |  | chicken embryo | in ovo injection, 0.50 µg/egg |  | body weight to egg weight ratio | 72.5 ± 2.9
CC(=O)c1c(O)c(C)c(O)c(Cc2c(O)c3c(c(C(=O)/C=C/c4ccccc4)c2O)OC(C)(C)C=C3)c1O | KCNH2 (Homo sapiens, UniProt Q12809) | ion current, whole-cell patch clamp | HEK293 expressing hERG1 | 4 µM, at -120 mV |  | fast deactivation component share | 68.9 ± 2.6%
Cn1cnc(Cn2c(=O)[nH]/c(=N\c3cc4cn(C)nc4cc3Cl)n(Cc3cc(F)c(F)cc3F)c2=O)n1 |  |  | human, mild renal impairment | oral, 375 mg, decreased GFR TEAE, mild severity |  | patients with adverse event | 0%
C[C@@H]1COCCN1c1cc(C2([S@](C)(=N)=O)CC2)nc(-c2cc[nH]c3nccc2-3)n1 |  |  | Japanese advanced solid tumour patients | oral, 160 mg twice daily, CTCAE grade ≥3 |  | COVID-19 incidence | 0%
Cn1cnc(Cn2c(=O)[nH]/c(=N\c3cc4cn(C)nc4cc3Cl)n(Cc3cc(F)c(F)cc3F)c2=O)n1 |  |  | healthy Japanese adults, plasma | oral, 250 mg, day 5, multiple dosing, fasted, with: prednisolone |  | Cmax | 52.3 µg/mL
Cc1cn([C@H]2O[C@@H](CO[P@@](=O)(N[C@@H](C)C(=O)OC(C)C)Oc3ccccc3)[C@H](O)[C@H]2F)c(=O)[nH]c1=O |  | measured: COVID-19 infection | human | 10 mg |  | patients with TEAE | 0%
C[C@H]1CN(C(=O)CC#N)[C@]12CCN(c1ncnc3[nH]ccc13)C2 |  |  | healthy human | oral, 3 mg single |  | subjects with positive SARS-CoV-2 test | 0%
CNC(=O)[C@@H](NC(=O)[C@H](CC(C)C)[C@H](O)C(=O)NO)C(C)(C)C | human fibrinogen | SDS-PAGE | Daboia russelii | concentration not given, unit not given, with: MH venom | baseline: untreated fibrinogen | remaining fibrinogen Bβ chain | 0.872
Cc1cc(C)c(CNC(=O)c2cc(Cl)c3c(c2C)O[C@@](C)([C@H]2CC[C@H](N(C)C)CC2)O3)c(=O)[nH]1 |  |  | relapsed/refractory NHL patients | dose not given, trial, safety set, treatment-related TEAE grade 1 or 2 |  | incidence of COVID-19 pneumonia | 0%
CC[C@H](C)[C@H](NC(=O)[C@H](CC(C)C)NC(=O)[C@H](Cc1c[nH]c2ccccc12)NC(=O)[C@H](CCC(N)=O)NC(=O)[C@@H](NC(=O)[C@H](Cc1ccccc1)NC(=O)[C@H](C)NC(=O)[C@H](CCCCNC(=O)COCCOCCNC(=O)COCCOCCNC(=O)CC[C@H](NC(=O)CCCCCCCCCCCCCCCCCCC(=O)O)C(=O)O)NC(=O)[C@H](CCC(N)=O)NC(=O)[C@H](C)NC(=O)[C@@H](NC(=O)[C@H](CCCCN)NC(=O)[C@H](CC(=O)O)NC(=O)[C@H](CC(C)C)NC(=O)C(C)(C)NC(=O)[C@@H](NC(=O)[C@H](CO)NC(=O)[C@H](Cc1ccc(O)cc1)NC(=O)[C@H](CC(=O)O)NC(=O)[C@H](CO)NC(=O)[C@@H](NC(=O)[C@H](Cc1ccccc1)NC(=O)[C@@H](NC(=O)CNC(=O)[C@H](CCC(=O)O)NC(=O)C(C)(C)NC(=O)[C@@H](N)Cc1ccc(O)cc1)[C@@H](C)O)[C@@H](C)O)[C@@H](C)CC)[C@@H](C)CC)C(C)C)C(=O)N[C@@H](C)C(=O)NCC(=O)NCC(=O)N1CCC[C@H]1C(=O)N[C@@H](CO)C(=O)N[C@@H](CO)C(=O)NCC(=O)N[C@@H](C)C(=O)N1CCC[C@H]1C(=O)N1CCC[C@H]1C(=O)N1CCC[C@H]1C(=O)N[C@@H](CO)C(N)=O |  |  | healthy subjects, single ascending dose | 2.5 mg, day 29 | baseline: baseline | systolic blood pressure change | 2.58 mmHg
Cc1cc(C)c(CNC(=O)c2cc(Cl)c3c(c2C)O[C@@](C)([C@H]2CC[C@H](N(C)C)CC2)O3)c(=O)[nH]1 |  |  | relapsed/refractory NHL patients | oral, 200 mg once daily, onset after cycle 1 day 1 |  | adverse event COVID-19 | 20.8%
CC(C)C(=O)OC[C@H]1O[C@@H](n2ccc(NO)nc2=O)[C@H](O)[C@@H]1O |  |  | human plasma | 24 h |  | remaining compound | 0%
Nc1ncnc2c([C@@H]3N[C@H](CO)[C@@H](O)[C@H]3O)c[nH]c12 | Zaire ebolavirus | viral replication | HeLa, Kikwit | 1.6 µM |  | inhibition | 0%

Repeated from above:
SMILES | tested on | assay | test system | conditions | how to read | measurement | value
C[C@@H]1Cc2c(Cl)cc(C(=O)N[C@H](Cc3ccccc3)C(=O)O)c(O)c2C(=O)O1 |  |  | chicken embryo | in ovo injection, 0.50 µg/egg |  | body weight to egg weight ratio | 72.5 ± 2.9
Cn1cnc(Cn2c(=O)[nH]/c(=N\c3cc4cn(C)nc4cc3Cl)n(Cc3cc(F)c(F)cc3F)c2=O)n1 |  |  | human, mild renal impairment | oral, 375 mg, decreased GFR TEAE, mild severity |  | patients with adverse event | 0%
Nc1ncnc2c([C@@H]3N[C@H](CO)[C@@H](O)[C@H]3O)c[nH]c12 | Zaire ebolavirus | viral replication | HeLa, Kikwit | 1.6 µM |  | inhibition | 0%
